# Experimental data collected from several papers.
# A part holds a random share of what one study measured. Changes are numbered by the printed parent chain.

# Block 1 — technique: RNA Bind-n-Seq; molecule type: RNA; medium: in vitro; tested at: 365 nM; baseline: no-protein control; reading: higher = stronger binding
# Target: RNA binding protein fox-1 homolog 2, RRM domain, GST-SBP tag (RBFOX2, Homo sapiens, UniProt O43251-10, residues 100-194)
# Notes: natural RNA segment, single round, ends assumed
# All sequences stand within: GGGAGUUCUACAGUCCGACGAUC … UGGAAUUCUCGGGUGCCAA
# Residues (chain): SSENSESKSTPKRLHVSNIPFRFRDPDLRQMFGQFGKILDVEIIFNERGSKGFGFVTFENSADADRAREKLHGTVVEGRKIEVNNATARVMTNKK
Oligonucleotide,RBNS enrichment (R)
AGGAUUCCCUCCCGGAGACUCGCACGGUGCUCCCUGCUCACGCGUUGUCACAGUUAGUCCGGAAAUGACUGAAACCAGGCAUUCUCCCGGACCUCAGCGUGGGGGAGCCU,0.392
ACCAGAAAGUUGUGGAUUAAAGGCCUGUGAAUACUGCUGAGCUUGUUGUUUGUAGAAGACCUCACUGGGGUCUCAGAUAAGCAGGUAAAAUAAACCUCAGGGUUUAUCUU,0.44
UUGAUAAGAUUAACAAUGUGUGCUUUGUAAAUGCCUUUUUCCUUAUCUUCUAUGUCUCUGUCAAGGACAGAAGUUGUCAGUUUAAUACACGAGCUCUUGUGUUGAAAGUG,0.571
GCCACACACUGUGGUUAUCUUUUGUUGUGGUUGUUUCUGAGAAAAUGUUCUUGGAUAUGUAAGUGCCAAUACCAGUGUGAAGUAUUGAUCCCGGGCAGCAAAAUACAGCC,0.658
UGAUGAGACUGUUAGGAUUGAUAAACAUUUGUUGUUUGAACCCAGCUAUCCAAACUGGGGAAGAAGGGGAAAUGGUUGUUACCAACAAUCUCUAGUAGUUAUUUUAAUCU,0.24
AUUGCUAUUUUCACGUAGGCCCUUGUCCUUGGAUACCCAGGGGAGGGAGCCACUGUCGCCGCAGCACACCAGGAUUGGGGCUCUCAGGCUGUGCUGCCCUAGACCCGCCA,0.336
UCACCAUGAGCUAUAUUUUCUUCUGGAUCUUUGACCAAGGUGAUGUCAGCUUAUUUCUGGGGAAGGUGUUGAGCUCUUAUACAUGAAAAUGGAUAUAGGCUAUUCUCUGG,0.32
CCUGUCACCCCACCCCAGGCCACCCUCUCCCAGAGGACGCCAUCUCCCUUACUGUUGCUGGGAGCCUCGCCCUUUGUCCCAACUGGGUAGAGCCCCCAGGUGCUGUUUGC,0.344
UGGGUUCUCCCAGUUACGGAAACCUUUUAAAGAUCCACAUUAGCCUUUUAGAAUAAAGCUGCUACUUUAACAGAGCACCUGGCGUGGGCCAAGUGCCUGAUACUCCCUUA,0.529
CAUAGUUUGGGAGUGGAGAAUACAGACAUUAUCAGCAGUGACAAAUCACAUAGCUUCAAAAACUCCUCCAGUUUGUGACAACAUGACAGGUGUGACAGCAUGACAGGUUU,1.67
UACAGUUAGAAAGCAAAGUGUUAAAUGGAGAAGAUACUUGUUUUUAUUAAACAUUUUGAGAUUUAGAUAAACUACAUUUUAACUGAAUGUCUAAAGUGAUUAUCUUUUUU,0.787
GCCUGUAAUCCCAACACUUUUGGGAGGUCCAGGCAGGAGGAUCACUUGGGCCCAGGAGGUCAAGCCUGCAGCGAGCUGAGAUCACACCACUGCACUCCAGCCUGGGGUGA,0.313

# Block 2 — technique: universal PBM; molecule type: double-stranded DNA, one strand shown; medium: in vitro; tested at: not given; reading: higher = stronger binding
# Target: Sal-like protein 4, full length isoform B (SALL4, Homo sapiens, UniProt Q9UJQ4-2, residues 1-616)
# Notes: 8-mer, flanks averaged, mean of replicates
Oligonucleotide,E-score
GCAAGCGC,-0.167
CCCTGATA,0.0178
ATCGCTCA,-0.142
ACCGTCGG,-0.284
CTACCATC,-0.123
AGAGGGTC,-0.182
CCTACTAA,-0.057
GCGAAGAA,-0.0192
CCCATGAA,-0.0628
CCGTGCCA,-0.215
ATTGCGAA,0.184
ATCAGAAA,0.124
CCCTAAAC,-0.043
ACACTCCC,-0.157
GTCACAAA,0.0251
ATCAATGA,0.236
GATCCTCA,-0.00355
CCGGCAAC,-0.316
CTTAGCCC,-0.262
CTTTCCCA,-0.0859
AGGTGCGG,-0.184
TCAACCCA,-0.00911
AGAGCCGC,-0.303
CGCATCAG,-0.0476
CACATAGG,0.0146

# Block 3 — technique: DHFR PCA, deep sequencing; medium: yeast; together with: (+)-ABA 2500 µM; baseline: wild-type fitted maximum; reading: higher = stronger binding
# Target: ABI1, truncated, D143A, DHFR fusion (Arabidopsis thaliana)
# Notes: methotrexate growth selection, single substitutions
# Starting sequence: PYL1, truncated, DHFR fusion (Arabidopsis thaliana); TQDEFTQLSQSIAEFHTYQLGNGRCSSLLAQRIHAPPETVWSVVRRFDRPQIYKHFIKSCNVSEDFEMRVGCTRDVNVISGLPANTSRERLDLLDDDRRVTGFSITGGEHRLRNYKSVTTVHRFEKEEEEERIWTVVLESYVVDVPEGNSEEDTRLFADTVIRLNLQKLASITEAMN
Substitution,relative binding score [%]
R49Y,97.1
R99C,93.3
P50C,83.4
N114W,65.3
D95H,88.2
L8N,87.5
F103P,1.39
E128A,101
T17R,99.8
S27N,104
D75V,96.9
T6G,107
Q7A,105
V121L,102

# Block 4 — technique: competition protein-binding microarray; molecule type: double-stranded DNA, one strand shown; medium: in vitro; tested at: 2 µM; together with: Cbf1 competitor, 0.05 µM; reading: higher = stronger binding; all sequences stand within: … GTCTTGATTCGCTTGACGCTGCTG
# Target: Phosphate system positive regulatory protein PHO4, full length, GST-tagged (PHO4, Saccharomyces cerevisiae, UniProt P07270, residues 1-312)
# Notes: whole 60-bp probe, lowest competitor level
# Construct (chain): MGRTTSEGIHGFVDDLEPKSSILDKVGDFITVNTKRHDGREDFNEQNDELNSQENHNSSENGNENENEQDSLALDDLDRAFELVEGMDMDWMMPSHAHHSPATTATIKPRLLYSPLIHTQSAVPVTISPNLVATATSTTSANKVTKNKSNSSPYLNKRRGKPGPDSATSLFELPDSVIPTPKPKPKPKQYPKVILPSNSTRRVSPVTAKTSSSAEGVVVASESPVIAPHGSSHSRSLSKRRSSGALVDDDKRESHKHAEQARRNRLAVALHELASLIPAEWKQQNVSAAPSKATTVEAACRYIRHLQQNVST
Oligonucleotide,fluorescence intensity [a.u.]
ATTGCTTAGCACCGTCACGTCTTTCGTTGGCTGTCA,5400
CACCTCTCGACCCGTCACGTCAAGGTTTGCTGCCTC,4570
TTTTTTTTCCGTAGTGCCGTGCCGACATTACCGAAT,6330
GATAGTAAACTCTGTCATGTTAATCGTTTGGATTTG,3980
TACATATAACGTATACGTTAGAAAAATTTGAATACA,3630
GACACCACTGACTTAACCGTGGGTATATTATATAAG,6840
TTTTCAAGGTCGCGGCCCGTGCAAAGCGCGGCTGGA,6430
AAATTACTAAGTTGGTCCGTGGGTGACGCCGTATGA,7180
AACAATAGAGAATCGCACGTGGCAATATTCGCGTTA,18600
CTTTCCCGATCTTGCGAGGTGGGTGTAGCACATTTG,4340
GTTTGCAGCTTACTTCACGTGTGGATGGAAAATTGA,11700
CGTCCTAGCGATTGACTTGTGGGTGCCATGAGGAAG,7220
CTTCTGTAAATTTGTCAGGTGGGTGGACGCGCCCCG,5110
GGACAACATGGACTCATCGTGATGGGACTGATATGA,7290
CAAAGTGAACCTGGACACGTTCTTGCCAGTGCTTTC,12800
GGTTTAACAGATCTGGACGTGATGGTTTTTTTTTTT,4260

# Block 5 — target: BATF, bZIP domain (human); technique: DHFR protein complementation; medium: yeast; baseline: wild-type JUN-FOS pair; reading: higher = stronger binding
# Notes: single substitutions, most at no-binding floor
# Starting sequence: JUN, bZIP domain (human); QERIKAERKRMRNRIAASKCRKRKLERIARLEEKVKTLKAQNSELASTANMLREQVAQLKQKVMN; partner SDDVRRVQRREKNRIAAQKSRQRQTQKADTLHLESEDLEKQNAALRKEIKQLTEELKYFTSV
Substitution,binding fitness [natural log]
R53M,-0.423
T48F,-0.104
E33R,-0.0884
E32K,-0.103
A49H,-0.434
A40F,-0.0867
L52I,-0.169
A40L,-0.0976
T48N,-0.209
I28T,-0.048
N42G,-0.26

# Block 6 — target: CCNA1, cyclin fold, Cln2 fusion (human); technique: yeast growth competition, sequencing; medium: yeast; notes: weak parent motif; baseline: not given; reading: higher = stronger binding
# Starting sequence: CDC6 docking peptide (human); TLKGRRLVFDNQL
Substitution,normalised enrichment score
TLKGRRLVFDNIL [Q12I],0.237
TLKYRRLVFDNQL [G4Y],0.0758
TLKGRRLVFGNQL [D10G],-0.221
TLKGRRLVFDNQA [L13A],0.552
TLKGRRLVFSNQL [D10S],0.452
TLKSRRLVFDNQL [G4S],-0.187
ALKGRRLVFDNQL [T1A],0.421
TLKGRRGVFDNQL [L7G],0.35
TLKGRRLVFDRQL [N11R],0.487
TLKGIRLVFDNQL [R5I],-0.111
TLKGRDLVFDNQL [R6D],0.0823
TLKLRRLVFDNQL [G4L],-0.115
TLKGRRLVFDIQL [N11I],-0.0837
TLKGARAVFDNQL [R5A L7A],0.0557
TLKGRRLVPDNQL [F9P],0.561
TLKGRRLVFDNQW [L13W],0.872
TLKGRRLVFDNML [Q12M],0.0987
TLKGRRLFFDNQL [V8F],0.543
